# Measured values from different studies.
# ± marks the error that the study gave.
Molecule,target,test,system,setting,how to read,measurement,value
diisopropyl fluorophosphate,bovine lens protease,"enzyme activity, inhibitor",lens protease-rich fraction,"1 mM, 30 min preincubation, 37 °C, added: MCA-62 to 70 substrate",,inhibition,~22%
CN1CC[C@]23c4c5ccc(O)c4O[C@H]2[C@@H](O)C=C[C@H]3[C@H]1C5,human mu opioid receptor,operational model,,,"relative to: GTPγS binding over β-arrestin 2 recruitment, relative to DAMGO, above 1 favours GTPγS binding",bias factor,1.8
pralidoxime iodide,"butyrylcholinesterase (pig), DFP-inhibited",reactivator,,,relative to: kr human over kr porcine enzyme,reactivation rate ratio,5 fold
Cc1c(N2CC[C@@H](CN)C2)c(F)cc2c(=O)n(N)c(=O)n(C3CC3)c12,Staphylococcus aureus topoisomerase IV GrlA S81Y,DNA cleavage complex stability,,20 µM,relative to: wild type,decrease in cleavage complex half-life,≤ 30%
U-69593,"opioid receptors, mouse","G protein activation, agonist",C57BL/6 wild-type mouse striatal membranes,,relative to: vehicle,Emax,30%
CC(C)[C@H]1CC[C@@H](N2CCC(n3c(CO)cc4ccccc43)CC2)CC1,α1 adrenergic receptor,radioligand binding,,10 µM,,inhibition,60%
13-desmethyl spirolide C,nicotinic acetylcholine receptor (Torpedo marmorata),binding,,"methanol standard, added: biotin-α-bungarotoxin 80 nM",,IC50,6.84 ± 1.15 nM
CCCc1nc2c(NP(=O)(OCC)OCC)nc3ccccc3c2s1,human TLR7 or TLR8,"reporter gene, agonist",,"concentration not given, receptor not specified",,agonist activity,inactive
c1ccc(Nc2cccc3ccccc23)cc1,Manis javanica OBP3 Y130A,"binding, fluorescence binding",,added: 1-NPN probe,,Kd,420 ± 160 nM
Cc1ccc(S(=O)(=O)N(C)CC(=O)N(CC2CCNCC2)c2ccc(C(=O)O)c(O)c2)cc1,STAT3,"STAT3 dimer DNA binding, inhibitor, EMSA",nuclear extract,,,IC50,> 300000 nM
CC[C@H](C)[C@@H]1NC(=O)[C@H](CCC(=O)O)NC(=O)[C@@H]2CCCN2C(=O)[C@H](Cc2c[nH]cn2)NC(=O)[C@H](CC(=O)O)NC(=O)[C@H](Cc2ccc(O)cc2)NC(=O)[C@H](CC(N)=O)NC(=O)[C@@H]2CSSC[C@@H]3NC(=O)CNC(=O)CNC(=O)CNC(=O)[C@H](C)NC(=O)[C@H](C)NC(=O)CNC(=O)CNC(=O)[C@H](CSSC[C@H](NC3=O)C(=O)N[C@@H](CO)C(=O)N[C@@H](CC(=O)O)C(=O)N3CCC[C@H]3C(=O)N[C@@H](CCCNC(=N)N)C(=O)N2)NC1=O,Cav2.1 human α1A-2,Ba2+ current,,"200 nM, without GABA-B receptor",,inhibition,0%
C[C@H]1COc2c(N3CCN(C)CC3)c(F)cc3c(=O)c(C(=O)O)cn1c23,Staphylococcus aureus topoisomerase IV GrlA S81F,,,,,maximal DNA cleavage,29.3%
methylarsonous diiodide,"pyruvate dehydrogenase complex, porcine","enzyme activity, inhibitor",,"1 h, 1 h preincubation, as ppb arsenic",,IC50,6.9 ppb
CCC(C)C1NC(=O)/C(=C(/C)O)C1=O (stereo not shown),plasma membrane H+-ATPase (Spinacia oleracea),ATP hydrolysis,purified leaf plasma membrane,"5 µM, 15 min, leaves pretreated in vivo, unit not given",relative to: untreated control,Km,0.48
U-69593,human kappa opioid receptor,"G protein over β-arrestin2, operational model",,unit not given,relative to: reference agonist,ΔΔlog(τ/KA),0
nociceptin,nociceptin receptor (human),BRET,,,"relative to: compound as unbiased standard, G protein over β-arrestin 2",bias factor,0

# Excerpt of the above:
Molecule,target,test,system,setting,how to read,measurement,value
C[C@H]1COc2c(N3CCN(C)CC3)c(F)cc3c(=O)c(C(=O)O)cn1c23,Staphylococcus aureus topoisomerase IV GrlA S81F,,,,,maximal DNA cleavage,29.3%
methylarsonous diiodide,"pyruvate dehydrogenase complex, porcine","enzyme activity, inhibitor",,"1 h, 1 h preincubation, as ppb arsenic",,IC50,6.9 ppb
